Measurements from different studies.
Lines come from different studies, so protocols differ. “And” joins repeats or separate records; there may be more than shown. ± marks the error that the study gave.

Compound	test	system	setting	how to read	measurement	value
CC(C)=CCC[C@](C)(O[C@@H]1O[C@H](CO)[C@@H](O)[C@H](O)[C@H]1O)[C@H]1CC[C@]2(C)[C@@H]1[C@H](O)C[C@@H]1[C@@]3(C)CC[C@H](O)C(C)(C)[C@@H]3CC[C@]12C		rat plasma	1 ng/mL, 24 h, room temperature		remaining amount	104 ± 8.3%
O=C/C=C/c1ccccc1		FaSSIF	2 h, pH 6.45, 37 °C		remaining concentration	320 ± 30 µg/mL
CSCC[C@H](NC(=O)[C@H](CCCNC(=N)N)NC(=O)[C@H](CCCNC(=N)N)NC(=O)[C@H](CCCCN)NC(=O)[C@H](C)NC(=O)[C@H](CCCNC(=N)N)NC(=O)CNC(=O)[C@@H](NC(=O)CCNC(=O)c1ccc2c(c1)C(=O)OC21c2ccc(O)cc2Oc2cc(O)ccc21)[C@@H](C)O)C(=O)N[C@@H](CSCB(O)O)C(=O)N[C@@H](Cc1ccc(O)cc1)C(=O)N[C@@H](CSCB(O)O)C(=O)N[C@@H](CCCNC(=N)N)C(=O)N[C@@H](CCCNC(=N)N)C(N)=O	HPLC peak area	50% human serum	100 µM, 1 h, pH 7.4, 37 °C	relative to: 0 h	remaining peptide	84% and 81.4% and 84.5%
NNc1ccccc1		PBS	2.5 h, 37 °C	relative to: initial amount	remaining fraction	0.65 and 0.62 and 0.72
CC(C)C[C@@H]1NC(=O)CNC(=O)[C@H](CC(N)=O)NC(=O)[C@H](CCCNC(=N)N)NC(=O)[C@H]([C@@H](C)O)NC(=O)[C@@H]2CSSC[C@@H]3NC(=O)[C@H]([C@@H](C)O)NC(=O)CNC(=O)CNC(=O)[C@H](C(C)C)NC(=O)[C@@H]4CSSC[C@H](NC(=O)[C@H]([C@@H](C)O)NC(=O)[C@H](CSSC[C@H](NC(=O)[C@H](CCCCN)NC(=O)[C@@H]5CCCN5C1=O)C(=O)NCC(=O)N[C@@H](CCC(=O)O)C(=O)N[C@@H]([C@@H](C)O)C(=O)N4)NC(=O)CNC(=O)[C@@H]1CCCN1C(=O)[C@H]([C@@H](C)O)NC(=O)[C@H](CC(N)=O)NC3=O)C(=O)N[C@@H](CO)C(=O)N[C@@H](Cc1c[nH]c3ccccc13)C(=O)N1CCC[C@H]1C(=O)N[C@@H](C(C)C)C(=O)N2	HPLC	water	180 µM, 14 days, 37 °C, deamidation stability		remaining peptide	93.7 ± 5.2%
CSCC[C@H](NC(=O)[C@H](CCCCN)NC(=O)[C@H](CCCNC(=N)N)NC(=O)[C@H](CO)NC(=O)[C@H](Cc1c[nH]c2ccccc12)NC(=O)[C@H](CCCNC(=N)N)NC(=O)[C@H](CC(C)C)NC(=O)[C@H](CO)NC(C)=O)C(=O)N1CCC[C@H]1C(=O)N[C@@H](CS)C(=O)N[C@H](C(=O)N[C@@H](CO)C(N)=O)C(C)C	12G5 competition, SUP-T1 cells	human plasma	concentration not given, 8 h		remaining activity	76 ± 11%
CC(C)C[C@@H]1NC(=O)CNC(=O)[C@H](CC(N)=O)NC(=O)[C@H](CCCNC(=N)N)NC(=O)[C@H]([C@@H](C)O)NC(=O)[C@@H]2CSSC[C@@H]3NC(=O)[C@H]([C@@H](C)O)NC(=O)CNC(=O)CNC(=O)[C@H](C(C)C)NC(=O)[C@@H]4CSSC[C@H](NC(=O)[C@H]([C@@H](C)O)NC(=O)[C@H](CSSC[C@H](NC(=O)[C@H](C(C)C)NC(=O)[C@@H]5CCCN5C1=O)C(=O)NCC(=O)N[C@@H](CCC(=O)O)C(=O)N[C@@H]([C@@H](C)O)C(=O)N4)NC(=O)CNC(=O)[C@H](CCCCN)NC(=O)[C@H]([C@@H](C)O)NC(=O)[C@H](CC(N)=O)NC3=O)C(=O)N[C@@H](CO)C(=O)N[C@@H](Cc1c[nH]c3ccccc13)C(=O)N1CCC[C@H]1C(=O)N[C@@H](C(C)C)C(=O)N2	HPLC	ammonium bicarbonate	180 µM, 14 days, pH 9.0, 25 °C, deamidation stability		remaining peptide	89.5 ± 0.6%
C/C(=C\CCP(=O)(OCOC(=O)C1CCOCC1)Oc1ccc(C(C)C)cc1)CO (stereo not drawn)		50% CD1 mouse plasma	100 µM, 2 h, pH 7.5, 37 °C		remaining compound	0%
CC(C)C[C@@H]1NC(=O)CNC(=O)[C@H](CC(N)=O)NC(=O)[C@H](CCCNC(=N)N)NC(=O)[C@H]([C@@H](C)O)NC(=O)[C@@H]2CSSC[C@@H]3NC(=O)[C@H]([C@@H](C)O)NC(=O)CNC(=O)CNC(=O)[C@H](C(C)C)NC(=O)[C@@H]4CSSC[C@H](NC(=O)[C@H]([C@@H](C)O)NC(=O)[C@H](CSSC[C@H](NC(=O)[C@H](C(C)C)NC(=O)[C@@H]5CCCN5C1=O)C(=O)NCC(=O)N[C@@H](CCC(=O)O)C(=O)N[C@@H](CCCCN)C(=O)N4)NC(=O)CNC(=O)[C@@H]1CCCN1C(=O)[C@H]([C@@H](C)O)NC(=O)[C@H](CC(N)=O)NC3=O)C(=O)N[C@@H](CO)C(=O)N[C@@H](Cc1c[nH]c3ccccc13)C(=O)N1CCC[C@H]1C(=O)N[C@@H](C(C)C)C(=O)N2	HPLC	ammonium bicarbonate 0.1 M	180 µM, 14 days, pH 9.0, 37 °C, deamidation stability		remaining peptide	56 ± 3%
CC[C@@H](C)[C@@H](NC(=O)[C@@H](Cc1ccc(O)cc1)NC(=O)[C@H]1CCCN1C(=O)[C@@H](CCCNC(=N)N)NC(=O)[C@H](N)Cc1c[nH]cn1)C(=O)N[C@H](C)C(=O)N[C@H](Cc1c[nH]cn1)C(=O)N[C@H](CCCNC(=N)N)C(=O)N[C@@H](C(=O)N[C@H](Cc1ccc(O)cc1)C(=O)N[C@H](CO)C(=O)N[C@H](Cc1ccccc1)C(N)=O)C(C)C		10% human serum	6 h		remaining compound	99% and 98.8% and 97.7%
CCC[C@@](N)(CO)CCc1ccc(OCCCCCC(C)C)cc1		rat liver microsomes	1 h		remaining compound	31%
CC[C@H](C)[C@H](NC(C)=O)C(=O)N[C@@H](CC(C)C)C(=O)N[C@@H](CCCNC(=N)N)C(=O)N[C@@H](Cc1c[nH]c2ccccc12)C(=O)N[C@@H](CO)C(=O)N[C@@H](CCCNC(=N)N)C(=O)N[C@@H](CCCCN)C(=O)N[C@@H](CC(C)C)C(=O)N1CCC[C@H]1C(=O)N[C@@H](CS)C(=O)N[C@H](C(=O)N[C@@H](CO)C(N)=O)C(C)C	12G5 competition, SUP-T1 cells	human plasma	concentration not given, 8 h		remaining activity	67 ± 6%
CC(C)C[C@@H]1NC(=O)CNC(=O)[C@H](CC(N)=O)NC(=O)[C@H](CCCNC(=N)N)NC(=O)[C@H]([C@@H](C)O)NC(=O)[C@@H]2CSSC[C@@H]3NC(=O)[C@H]([C@@H](C)O)NC(=O)CNC(=O)CNC(=O)[C@H](C(C)C)NC(=O)[C@@H]4CSSC[C@H](NC(=O)[C@H]([C@@H](C)O)NC(=O)[C@H](CSSC[C@H](NC(=O)[C@H](C(C)C)NC(=O)[C@@H]5CCCN5C1=O)C(=O)NCC(=O)N[C@@H](CCC(=O)O)C(=O)N[C@@H]([C@@H](C)O)C(=O)N4)NC(=O)CNC(=O)[C@@H]1CCCN1C(=O)[C@H]([C@@H](C)O)NC(=O)[C@H](CC(N)=O)NC3=O)C(=O)N[C@@H](CCCCN)C(=O)N[C@@H](Cc1c[nH]c3ccccc13)C(=O)N1CCC[C@H]1C(=O)N[C@@H](C(C)C)C(=O)N2	HPLC	ammonium bicarbonate	180 µM, 14 days, pH 9.0, 25 °C, deamidation stability		remaining peptide	79.6 ± 1%
CC[C@H](C)[C@H](N)C(=O)N[C@H](CC(C)C)C(=O)N[C@@H](CCCNC(=N)N)C(=O)N[C@@H](Cc1c[nH]c2ccccc12)C(=O)N[C@@H](CO)C(=O)N[C@@H](CCCNC(=N)N)C(=O)N[C@@H](CCCCN)C(=O)N[C@@H](CC(C)C)C(=O)N1CCC[C@H]1C(=O)N[C@@H](CS)C(=O)N[C@H](C(=O)N[C@@H](CO)C(N)=O)C(C)C	12G5 competition, SUP-T1 cells	human plasma	concentration not given, 2 h		remaining activity	63 ± 12%
CC[C@H](C)[C@H](NC(=O)[C@H](CCCCN)NC(=O)[C@H](CCC(=O)O)NC(=O)[C@H](CCCCN)NC(=O)[C@H](CO)NC(=O)[C@H](CCCCN)NC(=O)[C@H](CCCNC(=N)N)NC(=O)[C@H](Cc1ccccc1)NC(=O)[C@H](Cc1ccccc1)NC(=O)[C@H](CC(=O)O)NC(=O)CNC(=O)[C@H](CC(C)C)NC(=O)[C@@H](N)CC(C)C)C(=O)NCC(=O)N[C@@H](CCCCN)C(=O)N[C@@H](CCC(=O)O)C(=O)N[C@@H](Cc1ccccc1)C(=O)N[C@@H](CCCCN)C(=O)N[C@@H](CCCNC(=N)N)C(=O)N[C@H](C(=O)N[C@H](C(=O)N[C@@H](CCC(N)=O)C(=O)N[C@@H](CCCNC(=N)N)C(=O)N[C@H](C(=O)N[C@@H](CCCCN)C(=O)N[C@@H](CC(=O)O)C(=O)N[C@@H](Cc1ccccc1)C(=O)N[C@@H](CC(C)C)C(=O)N[C@@H](CCCNC(=N)N)C(=O)N[C@@H](CC(N)=O)C(=O)N[C@@H](CC(C)C)C(=O)N[C@H](C(=O)N1CCC[C@H]1C(=O)N[C@@H](CCCNC(=N)N)C(=O)N[C@H](C(=O)N[C@@H](CCC(=O)O)C(=O)N[C@@H](CO)C(=O)O)[C@@H](C)O)C(C)C)[C@@H](C)CC)C(C)C)[C@@H](C)CC	LC-MS	50% pooled human serum	40 µM, 20 min, pH 7.5, 37 °C	relative to: 0 h	remaining intact peptide	7.96% and 9.52% and 6.43%

For quick reference, copied from above:
Compound	test	system	setting	how to read	measurement	value
CC(C)C[C@@H]1NC(=O)CNC(=O)[C@H](CC(N)=O)NC(=O)[C@H](CCCNC(=N)N)NC(=O)[C@H]([C@@H](C)O)NC(=O)[C@@H]2CSSC[C@@H]3NC(=O)[C@H]([C@@H](C)O)NC(=O)CNC(=O)CNC(=O)[C@H](C(C)C)NC(=O)[C@@H]4CSSC[C@H](NC(=O)[C@H]([C@@H](C)O)NC(=O)[C@H](CSSC[C@H](NC(=O)[C@H](C(C)C)NC(=O)[C@@H]5CCCN5C1=O)C(=O)NCC(=O)N[C@@H](CCC(=O)O)C(=O)N[C@@H](CCCCN)C(=O)N4)NC(=O)CNC(=O)[C@@H]1CCCN1C(=O)[C@H]([C@@H](C)O)NC(=O)[C@H](CC(N)=O)NC3=O)C(=O)N[C@@H](CO)C(=O)N[C@@H](Cc1c[nH]c3ccccc13)C(=O)N1CCC[C@H]1C(=O)N[C@@H](C(C)C)C(=O)N2	HPLC	ammonium bicarbonate 0.1 M	180 µM, 14 days, pH 9.0, 37 °C, deamidation stability		remaining peptide	56 ± 3%
